Experimental data pooled from the literature.
A part holds a random share of what one study measured.

Set 1
Target: Histone acetyltransferase KAT6A, both winged helices, GST fusion (KAT6A, Homo sapiens, UniProt Q92794, residues 1-181)
Method: protein binding microarray
Form: double-stranded DNA, one strand shown
Medium: in vitro
Tested at: not given
Setting: 8-mer, flanks averaged, mean of 2 arrays, mostly near background
Relative to: not given
Reading: higher = stronger binding
Measurement: E-score
Residues (chain): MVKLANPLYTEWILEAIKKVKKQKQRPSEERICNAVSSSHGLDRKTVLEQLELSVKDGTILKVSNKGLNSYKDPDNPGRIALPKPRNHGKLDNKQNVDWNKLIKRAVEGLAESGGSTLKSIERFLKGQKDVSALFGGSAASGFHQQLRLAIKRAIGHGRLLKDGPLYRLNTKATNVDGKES
AACAATCC: 0.025
GAAATTCC: 0.0114
ATGCTTAC: -0.116
GTCTTCGA: 0.127
GGGACCTA: -0.0423

Set 2
Target: Phosphate system positive regulatory protein PHO4, full length, GST-tagged (PHO4, Saccharomyces cerevisiae, UniProt P07270, residues 1-312)
Method: competition protein-binding microarray
Form: double-stranded DNA, one strand shown
Medium: in vitro
Tested at: 2 µM
Setting: whole 60-bp probe, lowest competitor level
With: Cbf1 competitor, 0.05 µM
Reading: higher = stronger binding
Measurement: fluorescence intensity
Target sequence (chain): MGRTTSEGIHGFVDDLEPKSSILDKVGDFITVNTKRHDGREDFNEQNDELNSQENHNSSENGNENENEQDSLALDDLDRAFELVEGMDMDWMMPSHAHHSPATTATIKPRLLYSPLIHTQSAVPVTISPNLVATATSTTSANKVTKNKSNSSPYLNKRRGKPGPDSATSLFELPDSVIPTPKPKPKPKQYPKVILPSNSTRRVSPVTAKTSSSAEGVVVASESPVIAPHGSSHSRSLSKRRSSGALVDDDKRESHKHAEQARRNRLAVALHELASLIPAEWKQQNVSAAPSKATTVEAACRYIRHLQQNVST
AAAGCGGTAATTTGGATGGTGGGTGCAGATATCTATGTCTTGATTCGCTTGACGCTGCTG: 4660 a.u.
AAGTGTATGGGTCCACGCGTGTTTTGTGCAGTGTATGTCTTGATTCGCTTGACGCTGCTG: 10600 a.u.
TTACAACAGGAATACCTTGTGACAGGCAACCAAGAAGTCTTGATTCGCTTGACGCTGCTG: 4220 a.u.

Set 3
Target: Sal-like protein 4, full length isoform A (SALL4, Homo sapiens, UniProt Q9UJQ4, residues 1-1053)
Sequence of UniProt Q9UJQ4 (whole entry, looked up): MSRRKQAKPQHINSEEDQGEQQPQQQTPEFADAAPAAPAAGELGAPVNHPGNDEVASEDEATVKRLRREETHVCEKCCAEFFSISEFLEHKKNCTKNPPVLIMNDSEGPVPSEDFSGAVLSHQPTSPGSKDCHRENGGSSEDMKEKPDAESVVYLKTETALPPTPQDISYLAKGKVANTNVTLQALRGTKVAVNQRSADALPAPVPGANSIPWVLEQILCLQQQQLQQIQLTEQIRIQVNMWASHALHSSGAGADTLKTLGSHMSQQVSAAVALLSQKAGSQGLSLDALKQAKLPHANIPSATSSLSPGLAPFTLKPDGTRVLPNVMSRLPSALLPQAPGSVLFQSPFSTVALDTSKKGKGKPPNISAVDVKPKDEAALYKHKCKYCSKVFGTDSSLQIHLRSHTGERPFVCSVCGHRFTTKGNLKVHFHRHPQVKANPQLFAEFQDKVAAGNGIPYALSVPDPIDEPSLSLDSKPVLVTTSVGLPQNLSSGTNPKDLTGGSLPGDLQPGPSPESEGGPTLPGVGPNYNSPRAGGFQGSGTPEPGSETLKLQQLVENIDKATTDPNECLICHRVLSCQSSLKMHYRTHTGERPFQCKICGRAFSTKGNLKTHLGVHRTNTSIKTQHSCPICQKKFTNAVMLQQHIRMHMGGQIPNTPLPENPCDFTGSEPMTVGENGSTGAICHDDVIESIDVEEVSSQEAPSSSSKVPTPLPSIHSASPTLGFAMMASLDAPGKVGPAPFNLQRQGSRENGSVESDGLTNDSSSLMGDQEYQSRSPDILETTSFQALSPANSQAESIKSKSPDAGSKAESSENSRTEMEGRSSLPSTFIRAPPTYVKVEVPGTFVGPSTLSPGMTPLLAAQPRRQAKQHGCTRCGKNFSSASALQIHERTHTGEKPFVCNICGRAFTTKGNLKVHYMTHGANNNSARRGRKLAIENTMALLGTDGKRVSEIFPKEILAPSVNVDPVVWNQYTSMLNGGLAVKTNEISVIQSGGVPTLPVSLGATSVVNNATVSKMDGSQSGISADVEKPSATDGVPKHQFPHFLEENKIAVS
Method: universal PBM
Form: double-stranded DNA, one strand shown
Medium: in vitro
Tested at: 600 nM
Setting: 8-mer, flanks averaged, mean of replicates
Reading: higher = stronger binding
Measurement: E-score
CGCCAGAC: -0.22
ATGTATTG: 0.245
GAGGGACC: -0.285

Single results of other studies
PhoQ, residues 284 288 289 292 302 303 TLASMF
fold induction (PhoP, residues 12 14 15 18 19 VHSCL (Escherichia coli, UniProt P23836); Sort-seq, refers to: YFP reporter; E. coli; PhoQ-PhoP variant library, with: 10 µM Mg2+; relative to: high Mg2+ state, higher = stronger signaling): 1.19

For quick reference, copied from above (set 3):
CGCCAGAC: -0.22
ATGTATTG: 0.245
